Measurements collected from several papers.
Every numbered part comes from another study and shows a few of its results, in no order. Values joined by “and” are separate records of one study, mostly repeats; a detail may differ. Positions count from the first letter of the parent shown.
Chain of UniProt Q96D53 (whole entry, looked up): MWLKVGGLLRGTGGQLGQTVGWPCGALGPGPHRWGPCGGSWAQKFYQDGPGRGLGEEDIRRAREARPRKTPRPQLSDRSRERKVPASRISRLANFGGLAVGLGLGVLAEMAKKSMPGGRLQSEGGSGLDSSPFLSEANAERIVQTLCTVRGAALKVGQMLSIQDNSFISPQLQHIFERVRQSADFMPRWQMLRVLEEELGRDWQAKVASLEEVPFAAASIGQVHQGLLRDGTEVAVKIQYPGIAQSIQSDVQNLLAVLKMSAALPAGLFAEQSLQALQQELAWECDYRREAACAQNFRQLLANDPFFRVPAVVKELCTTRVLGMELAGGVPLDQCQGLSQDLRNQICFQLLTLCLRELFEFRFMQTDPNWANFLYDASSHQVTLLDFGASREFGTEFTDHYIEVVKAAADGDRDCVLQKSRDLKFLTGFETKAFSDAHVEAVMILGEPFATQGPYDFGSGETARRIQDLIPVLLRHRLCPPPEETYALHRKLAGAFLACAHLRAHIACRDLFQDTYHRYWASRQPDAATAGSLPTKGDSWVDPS
Chain of UniProt O15075 (whole entry, looked up): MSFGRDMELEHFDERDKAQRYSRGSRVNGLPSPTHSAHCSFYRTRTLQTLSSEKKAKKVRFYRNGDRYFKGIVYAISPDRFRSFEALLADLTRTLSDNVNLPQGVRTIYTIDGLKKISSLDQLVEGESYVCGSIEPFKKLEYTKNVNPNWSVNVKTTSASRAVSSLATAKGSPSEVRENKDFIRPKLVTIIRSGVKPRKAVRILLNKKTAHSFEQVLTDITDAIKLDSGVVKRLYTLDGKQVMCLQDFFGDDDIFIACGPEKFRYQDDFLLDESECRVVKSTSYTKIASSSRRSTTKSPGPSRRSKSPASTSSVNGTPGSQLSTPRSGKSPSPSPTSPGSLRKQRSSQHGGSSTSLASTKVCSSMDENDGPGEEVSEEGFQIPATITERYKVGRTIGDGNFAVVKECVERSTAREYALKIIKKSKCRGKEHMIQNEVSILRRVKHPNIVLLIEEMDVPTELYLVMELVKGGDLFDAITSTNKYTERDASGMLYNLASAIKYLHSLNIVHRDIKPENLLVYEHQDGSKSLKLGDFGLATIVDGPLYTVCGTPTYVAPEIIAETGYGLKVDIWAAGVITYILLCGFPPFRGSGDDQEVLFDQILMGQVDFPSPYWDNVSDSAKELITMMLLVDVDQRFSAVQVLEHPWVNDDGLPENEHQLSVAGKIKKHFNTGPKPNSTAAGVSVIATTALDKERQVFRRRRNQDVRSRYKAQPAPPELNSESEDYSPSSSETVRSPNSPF
Chain of UniProt P08922 (whole entry, looked up): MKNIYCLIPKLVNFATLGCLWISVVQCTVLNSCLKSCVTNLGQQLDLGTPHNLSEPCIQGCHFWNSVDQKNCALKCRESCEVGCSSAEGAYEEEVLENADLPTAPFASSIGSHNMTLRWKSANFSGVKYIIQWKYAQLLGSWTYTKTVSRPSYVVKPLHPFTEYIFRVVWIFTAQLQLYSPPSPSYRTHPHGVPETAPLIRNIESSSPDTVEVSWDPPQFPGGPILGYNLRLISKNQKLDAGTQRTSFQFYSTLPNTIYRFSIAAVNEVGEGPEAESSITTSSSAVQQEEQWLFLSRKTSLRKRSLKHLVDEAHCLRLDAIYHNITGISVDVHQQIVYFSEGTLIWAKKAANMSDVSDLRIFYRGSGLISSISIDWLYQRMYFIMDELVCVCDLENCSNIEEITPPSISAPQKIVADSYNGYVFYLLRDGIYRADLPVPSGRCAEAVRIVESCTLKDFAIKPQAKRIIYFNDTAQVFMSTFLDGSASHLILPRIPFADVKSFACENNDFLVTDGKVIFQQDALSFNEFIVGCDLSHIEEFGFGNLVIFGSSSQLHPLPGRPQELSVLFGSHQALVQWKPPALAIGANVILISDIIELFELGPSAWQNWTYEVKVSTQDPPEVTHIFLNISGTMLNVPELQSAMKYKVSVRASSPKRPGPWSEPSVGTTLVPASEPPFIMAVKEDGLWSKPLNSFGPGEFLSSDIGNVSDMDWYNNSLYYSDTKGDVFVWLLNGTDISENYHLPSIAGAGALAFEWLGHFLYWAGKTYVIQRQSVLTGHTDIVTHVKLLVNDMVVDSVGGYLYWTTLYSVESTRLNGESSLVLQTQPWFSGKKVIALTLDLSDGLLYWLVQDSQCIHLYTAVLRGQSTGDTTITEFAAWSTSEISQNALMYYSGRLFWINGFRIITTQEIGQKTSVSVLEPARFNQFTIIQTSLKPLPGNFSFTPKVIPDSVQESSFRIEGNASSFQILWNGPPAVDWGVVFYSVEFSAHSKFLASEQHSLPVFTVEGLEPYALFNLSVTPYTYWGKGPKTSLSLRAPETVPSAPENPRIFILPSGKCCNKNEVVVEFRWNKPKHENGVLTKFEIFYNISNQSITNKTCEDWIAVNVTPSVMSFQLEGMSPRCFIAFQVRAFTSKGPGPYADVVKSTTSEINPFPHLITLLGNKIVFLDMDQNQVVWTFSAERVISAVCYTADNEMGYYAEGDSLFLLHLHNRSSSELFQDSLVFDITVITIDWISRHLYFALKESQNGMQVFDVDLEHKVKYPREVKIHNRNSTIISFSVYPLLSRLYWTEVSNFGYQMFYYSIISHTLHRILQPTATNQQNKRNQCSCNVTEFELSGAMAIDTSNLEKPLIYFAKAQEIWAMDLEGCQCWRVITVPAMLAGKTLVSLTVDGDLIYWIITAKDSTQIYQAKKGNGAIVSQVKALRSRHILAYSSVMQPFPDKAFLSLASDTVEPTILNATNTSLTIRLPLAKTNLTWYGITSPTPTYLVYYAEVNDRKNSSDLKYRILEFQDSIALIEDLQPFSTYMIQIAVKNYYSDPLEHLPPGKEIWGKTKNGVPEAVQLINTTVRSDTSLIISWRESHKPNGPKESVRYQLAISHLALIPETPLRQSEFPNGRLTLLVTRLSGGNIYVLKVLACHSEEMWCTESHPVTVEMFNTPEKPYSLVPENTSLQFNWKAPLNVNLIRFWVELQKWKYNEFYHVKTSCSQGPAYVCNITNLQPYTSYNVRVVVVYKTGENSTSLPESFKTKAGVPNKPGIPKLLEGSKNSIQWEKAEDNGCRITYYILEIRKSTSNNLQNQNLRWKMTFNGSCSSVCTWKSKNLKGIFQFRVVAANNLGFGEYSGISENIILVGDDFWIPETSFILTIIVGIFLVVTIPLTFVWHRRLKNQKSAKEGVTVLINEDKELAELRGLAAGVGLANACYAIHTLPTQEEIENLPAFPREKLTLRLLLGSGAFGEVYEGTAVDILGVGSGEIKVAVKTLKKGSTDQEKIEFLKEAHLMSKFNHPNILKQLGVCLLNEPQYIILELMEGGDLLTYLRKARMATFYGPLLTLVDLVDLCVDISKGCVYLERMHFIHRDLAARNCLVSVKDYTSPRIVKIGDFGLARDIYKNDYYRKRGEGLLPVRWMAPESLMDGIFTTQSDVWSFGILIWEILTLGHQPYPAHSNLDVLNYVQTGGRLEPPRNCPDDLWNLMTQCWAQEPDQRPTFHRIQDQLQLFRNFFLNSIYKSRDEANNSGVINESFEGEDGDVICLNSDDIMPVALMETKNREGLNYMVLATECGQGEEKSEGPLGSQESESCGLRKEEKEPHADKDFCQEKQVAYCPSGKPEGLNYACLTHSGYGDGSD
Chain of UniProt Q52WX2 (whole entry, looked up): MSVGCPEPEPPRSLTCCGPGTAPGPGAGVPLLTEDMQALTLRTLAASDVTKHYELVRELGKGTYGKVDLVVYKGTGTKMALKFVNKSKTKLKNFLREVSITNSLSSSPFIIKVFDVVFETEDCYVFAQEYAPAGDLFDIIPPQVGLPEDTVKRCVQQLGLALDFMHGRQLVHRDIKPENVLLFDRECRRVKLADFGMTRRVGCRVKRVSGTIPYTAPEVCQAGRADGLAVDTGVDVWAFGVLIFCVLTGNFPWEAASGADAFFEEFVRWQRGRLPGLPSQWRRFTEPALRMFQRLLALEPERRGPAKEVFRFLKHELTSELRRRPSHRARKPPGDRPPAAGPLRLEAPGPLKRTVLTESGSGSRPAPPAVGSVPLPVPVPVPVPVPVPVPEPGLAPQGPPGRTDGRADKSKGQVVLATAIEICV
Chain of UniProt P54760 (whole entry, looked up): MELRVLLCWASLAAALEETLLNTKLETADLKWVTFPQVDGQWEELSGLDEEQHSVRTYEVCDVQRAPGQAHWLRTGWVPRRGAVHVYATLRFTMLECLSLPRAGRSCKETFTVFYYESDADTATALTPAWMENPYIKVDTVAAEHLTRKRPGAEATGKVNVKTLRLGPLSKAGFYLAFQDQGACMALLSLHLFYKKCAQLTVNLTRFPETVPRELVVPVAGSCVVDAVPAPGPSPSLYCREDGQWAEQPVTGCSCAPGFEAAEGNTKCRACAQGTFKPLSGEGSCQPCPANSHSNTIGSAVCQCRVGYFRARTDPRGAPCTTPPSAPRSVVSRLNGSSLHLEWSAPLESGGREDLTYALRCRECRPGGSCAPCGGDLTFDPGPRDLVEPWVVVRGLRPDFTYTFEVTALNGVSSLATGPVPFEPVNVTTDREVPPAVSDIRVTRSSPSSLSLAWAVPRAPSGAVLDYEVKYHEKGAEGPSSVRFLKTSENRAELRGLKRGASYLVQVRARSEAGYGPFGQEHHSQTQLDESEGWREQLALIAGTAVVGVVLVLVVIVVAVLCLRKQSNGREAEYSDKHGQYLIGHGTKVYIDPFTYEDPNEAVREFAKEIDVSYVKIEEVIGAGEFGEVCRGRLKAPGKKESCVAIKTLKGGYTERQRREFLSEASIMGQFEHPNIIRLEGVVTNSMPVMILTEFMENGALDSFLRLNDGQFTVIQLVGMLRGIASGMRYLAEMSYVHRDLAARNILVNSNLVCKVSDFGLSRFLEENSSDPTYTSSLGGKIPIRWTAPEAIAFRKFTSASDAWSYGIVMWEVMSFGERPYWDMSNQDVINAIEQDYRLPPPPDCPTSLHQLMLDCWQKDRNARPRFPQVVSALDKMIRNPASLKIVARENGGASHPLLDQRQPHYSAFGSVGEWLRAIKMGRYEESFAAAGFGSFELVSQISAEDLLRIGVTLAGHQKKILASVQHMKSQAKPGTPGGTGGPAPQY

Series 1
Target: CRIPT, C-terminal peptide
Method: DHFR complementation, deep sequencing
Sample: yeast
Setting: single substitutions, model-inferred values
Relative to: wild type
Reading: higher = weaker binding
Measurement: binding free energy change
Starting sequence: ERBIN, PDZ domain 1 (human); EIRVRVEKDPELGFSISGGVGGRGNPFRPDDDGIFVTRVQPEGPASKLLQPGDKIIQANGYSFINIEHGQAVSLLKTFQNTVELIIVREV; partner TKNYKQTSV
V4E: 0.822 kcal/mol
I64Y: 0.00976 kcal/mol
S73R: 0.0643 kcal/mol
G52S: 0.0582 kcal/mol
Q50V: -0.0464 kcal/mol
V72S: 0.779 kcal/mol
G13F: -0.0972 kcal/mol
G19K: 1.68 kcal/mol

Series 2
Structure (SMILES): CNC(=O)c1ccc(Nc2ncc(C(F)(F)F)c(NCc3nccnc3N(C)S(C)(=O)=O)n2)cc1
Concentration: 0.1 µM
Measurement: remaining binding
COQ8B (Homo sapiens, UniProt Q96D53); cell-free assay, competition with immobilised ligand: 88%
FYN (Homo sapiens, UniProt P06241); cell-free assay, competition with immobilised ligand: 100%
PAK5 (Homo sapiens, UniProt Q9P286); cell-free assay, competition with immobilised ligand: 62%
ROS1 (Homo sapiens, UniProt P08922); cell-free assay, competition with immobilised ligand: 58%
CDC42BPG (Homo sapiens, UniProt Q6DT37); competition binding: 80%
Ribosomal protein S6 kinase alpha-2, N-terminal kinase domain (RPS6KA2, Homo sapiens, UniProt Q15349); cell-free assay, competition with immobilised ligand: 77%
DCLK1 (Homo sapiens, UniProt O15075); cell-free assay, competition with immobilised ligand: 99%
MAP3K13 (Homo sapiens, UniProt O43283); cell-free assay, competition with immobilised ligand: 98%
EPHB2 (Homo sapiens, UniProt P29323); cell-free assay, competition with immobilised ligand: 76%
MAP3K5 (Homo sapiens, UniProt Q99683); cell-free assay, competition with immobilised ligand: 100%
SNRK (Homo sapiens, UniProt Q9NRH2); cell-free assay, competition with immobilised ligand: 100%
EPHB4 (Homo sapiens, UniProt P54760); cell-free assay, competition with immobilised ligand: 94%
SBK1 (Homo sapiens, UniProt Q52WX2); cell-free assay, competition with immobilised ligand: 67%
Non-receptor tyrosine-protein kinase TYK2, JH1 (TYK2, Homo sapiens, UniProt P29597); cell-free assay, competition with immobilised ligand: 27%
CDK19 (Homo sapiens, UniProt Q9BWU1); competition binding: 100%
PLK2 (Homo sapiens, UniProt Q9NYY3); cell-free assay, competition with immobilised ligand: 77%
Myosin-IIIa (MYO3A, Homo sapiens, UniProt Q8NEV4); binding, competition with immobilised ligand: 100%
SYK (Homo sapiens, UniProt P43405); cell-free assay, competition with immobilised ligand: 66%

Series 3
Target: Phosphate system positive regulatory protein PHO4, full length, GST-tagged (PHO4, Saccharomyces cerevisiae, UniProt P07270, residues 1-312)
Method: competition protein-binding microarray
Molecule type: double-stranded DNA, one strand shown
Sample: in vitro
Concentration: 2 µM
Setting: whole 60-bp probe, lowest competitor level
Together with: Cbf1 competitor, 0.05 µM
Reading: higher = stronger binding
Measurement: fluorescence intensity
All sequences stand within: … GTCTTGATTCGCTTGACGCTGCTG
Residues (chain): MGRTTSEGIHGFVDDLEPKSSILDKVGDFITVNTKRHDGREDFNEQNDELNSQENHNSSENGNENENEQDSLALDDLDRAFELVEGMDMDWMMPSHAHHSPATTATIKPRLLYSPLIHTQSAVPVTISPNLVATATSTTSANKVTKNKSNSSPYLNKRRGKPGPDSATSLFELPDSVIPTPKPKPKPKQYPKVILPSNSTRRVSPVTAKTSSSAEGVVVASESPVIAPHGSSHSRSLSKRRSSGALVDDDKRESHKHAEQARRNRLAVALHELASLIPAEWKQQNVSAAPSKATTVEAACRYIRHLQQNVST
CAAGGGATCCTCATTCTCGTGGTCGTAGGTGGGTTG: 6910 a.u.
CTAGAAAAGAAACACCGCGTGGTGAATCTATGTCCA: 11200 a.u.
TGCGCAACAACTTGTCACAACACTTTATGTCTAGAA: 3800 a.u.
CCTTGGTTGACTGCAAACGTGTGGAAATACGGAAAG: 9960 a.u.
CATTGCTAGCTCCTCTCCGTGACGGTTATTCAGTGT: 4240 a.u.
ACCGGTTTTCTCGTCCACGTGAACGGTGTCAACACC: 13100 a.u.
CTTGGCAAGTTTCCCCTCGTGGTGAAGGATGGCTCT: 10200 a.u.
CTAACGAAGGTTTGTTCTGTGGGTGACAAGCCAAGT: 3670 a.u.

Series 4
SMILES: c1ccc(Oc2ccc(Nc3c4c(nc5ccccc35)CCC4)cc2)cc1
Measurement: cytotoxicity
RAW264.7; resazurin; 66.66 µM, 64 h: 80% and 87%
PMA-differentiated THP-1 macrophages; 4 µM, 64 h: -7% and 12%
HEK293; resazurin; 0.00332 µM, 10% serum: 3% and 7%

Further values, each from its own experiment
CC(C)n1cnc(-c2ccc(F)cc2)c1-c1ncc(C(=O)Nc2ccc(N3CCN(C)CC3)cc2)[nH]1 — patients with dyspnoea (phase 2a trial; idiopathic pulmonary fibrosis patients; dose not given, adverse event grade 3, all dose arms pooled): 0%
CCN(CC)CCOC(=O)c1ccc(N)cc1 — nuclear SOX9 intensity (mouse MPNST tumor cells; high-content immunofluorescence imaging, item: nuclear SOX9; 10 µM, 12 h, mean of 2 replicates; relative to: DMSO control, higher = more nuclear SOX9): 94.3 % of DMSO

For quick reference, copied from above (series 4):
RAW264.7; resazurin; 66.66 µM, 64 h: 80% and 87%
PMA-differentiated THP-1 macrophages; 4 µM, 64 h: -7% and 12%
HEK293; resazurin; 0.00332 µM, 10% serum: 3% and 7%
